Results of several laboratories.
Lines come from different studies, so protocols differ.
CTSL: Procathepsin L (CTSL, Homo sapiens, UniProt P07711)
Sequence of UniProt P07711 (whole entry, looked up): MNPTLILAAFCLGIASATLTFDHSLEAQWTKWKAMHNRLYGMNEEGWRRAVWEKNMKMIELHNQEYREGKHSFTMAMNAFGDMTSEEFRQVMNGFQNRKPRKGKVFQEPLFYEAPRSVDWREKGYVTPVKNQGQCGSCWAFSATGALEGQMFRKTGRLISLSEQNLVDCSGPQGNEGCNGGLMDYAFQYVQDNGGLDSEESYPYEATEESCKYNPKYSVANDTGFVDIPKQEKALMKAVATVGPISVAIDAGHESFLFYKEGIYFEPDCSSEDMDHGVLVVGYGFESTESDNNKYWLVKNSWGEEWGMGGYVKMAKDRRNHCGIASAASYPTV
Sequence of UniProt Q04912 (whole entry, looked up): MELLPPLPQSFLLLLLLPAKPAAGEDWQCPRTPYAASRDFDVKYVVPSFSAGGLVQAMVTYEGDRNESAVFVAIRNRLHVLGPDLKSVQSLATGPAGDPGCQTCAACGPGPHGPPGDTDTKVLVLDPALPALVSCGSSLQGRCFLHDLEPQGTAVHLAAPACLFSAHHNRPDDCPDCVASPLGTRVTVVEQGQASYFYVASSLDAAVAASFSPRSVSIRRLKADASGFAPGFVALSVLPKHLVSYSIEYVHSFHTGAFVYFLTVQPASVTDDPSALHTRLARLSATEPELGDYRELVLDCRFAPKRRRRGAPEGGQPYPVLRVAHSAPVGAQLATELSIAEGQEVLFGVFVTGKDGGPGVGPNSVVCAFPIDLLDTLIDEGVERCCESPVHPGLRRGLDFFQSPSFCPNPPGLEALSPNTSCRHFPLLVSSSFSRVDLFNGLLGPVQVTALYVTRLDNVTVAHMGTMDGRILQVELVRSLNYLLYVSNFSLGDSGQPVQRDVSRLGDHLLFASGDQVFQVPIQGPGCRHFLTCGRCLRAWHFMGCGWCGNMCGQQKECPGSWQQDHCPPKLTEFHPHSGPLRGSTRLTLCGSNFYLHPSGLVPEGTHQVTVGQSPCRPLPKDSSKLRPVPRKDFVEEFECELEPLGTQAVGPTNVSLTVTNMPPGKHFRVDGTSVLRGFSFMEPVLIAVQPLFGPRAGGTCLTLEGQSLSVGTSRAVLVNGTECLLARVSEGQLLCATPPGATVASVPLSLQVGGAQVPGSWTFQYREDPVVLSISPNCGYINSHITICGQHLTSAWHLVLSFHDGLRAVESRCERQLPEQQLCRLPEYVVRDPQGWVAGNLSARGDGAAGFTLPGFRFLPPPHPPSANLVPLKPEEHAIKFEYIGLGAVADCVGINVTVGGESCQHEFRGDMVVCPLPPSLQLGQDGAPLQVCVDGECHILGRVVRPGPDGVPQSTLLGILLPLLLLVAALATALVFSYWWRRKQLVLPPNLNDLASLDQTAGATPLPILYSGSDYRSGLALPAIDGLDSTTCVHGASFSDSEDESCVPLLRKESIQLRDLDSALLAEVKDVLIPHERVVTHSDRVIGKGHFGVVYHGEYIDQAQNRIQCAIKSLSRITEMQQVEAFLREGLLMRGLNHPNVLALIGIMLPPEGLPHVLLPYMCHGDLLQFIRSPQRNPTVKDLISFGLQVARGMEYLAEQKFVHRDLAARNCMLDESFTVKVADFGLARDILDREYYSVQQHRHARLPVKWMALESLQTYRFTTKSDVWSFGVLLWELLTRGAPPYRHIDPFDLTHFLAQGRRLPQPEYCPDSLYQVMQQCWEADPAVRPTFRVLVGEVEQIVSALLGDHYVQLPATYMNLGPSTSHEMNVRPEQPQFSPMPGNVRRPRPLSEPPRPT
Sequence of UniProt P53778 (whole entry, looked up): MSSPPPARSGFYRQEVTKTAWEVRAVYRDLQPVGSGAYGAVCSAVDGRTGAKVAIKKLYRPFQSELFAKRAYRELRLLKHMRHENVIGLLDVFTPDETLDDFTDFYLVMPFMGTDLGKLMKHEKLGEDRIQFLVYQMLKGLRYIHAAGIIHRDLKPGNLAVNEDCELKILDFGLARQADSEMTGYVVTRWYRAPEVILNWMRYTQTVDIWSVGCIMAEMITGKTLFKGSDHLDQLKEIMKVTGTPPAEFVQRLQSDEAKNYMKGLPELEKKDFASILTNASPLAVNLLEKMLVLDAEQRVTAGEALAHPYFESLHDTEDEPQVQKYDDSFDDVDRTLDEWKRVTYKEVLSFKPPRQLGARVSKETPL
Sequence of UniProt Q00535 (whole entry, looked up): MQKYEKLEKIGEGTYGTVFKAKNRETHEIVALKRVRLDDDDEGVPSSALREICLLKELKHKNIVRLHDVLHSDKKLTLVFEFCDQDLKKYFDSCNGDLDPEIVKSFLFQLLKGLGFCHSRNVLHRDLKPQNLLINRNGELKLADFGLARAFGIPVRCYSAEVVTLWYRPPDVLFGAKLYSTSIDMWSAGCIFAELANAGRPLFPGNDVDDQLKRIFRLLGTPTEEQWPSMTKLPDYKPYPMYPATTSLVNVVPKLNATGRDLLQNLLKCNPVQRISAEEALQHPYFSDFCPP
Sequence of UniProt Q9Y5Y6 (whole entry, looked up): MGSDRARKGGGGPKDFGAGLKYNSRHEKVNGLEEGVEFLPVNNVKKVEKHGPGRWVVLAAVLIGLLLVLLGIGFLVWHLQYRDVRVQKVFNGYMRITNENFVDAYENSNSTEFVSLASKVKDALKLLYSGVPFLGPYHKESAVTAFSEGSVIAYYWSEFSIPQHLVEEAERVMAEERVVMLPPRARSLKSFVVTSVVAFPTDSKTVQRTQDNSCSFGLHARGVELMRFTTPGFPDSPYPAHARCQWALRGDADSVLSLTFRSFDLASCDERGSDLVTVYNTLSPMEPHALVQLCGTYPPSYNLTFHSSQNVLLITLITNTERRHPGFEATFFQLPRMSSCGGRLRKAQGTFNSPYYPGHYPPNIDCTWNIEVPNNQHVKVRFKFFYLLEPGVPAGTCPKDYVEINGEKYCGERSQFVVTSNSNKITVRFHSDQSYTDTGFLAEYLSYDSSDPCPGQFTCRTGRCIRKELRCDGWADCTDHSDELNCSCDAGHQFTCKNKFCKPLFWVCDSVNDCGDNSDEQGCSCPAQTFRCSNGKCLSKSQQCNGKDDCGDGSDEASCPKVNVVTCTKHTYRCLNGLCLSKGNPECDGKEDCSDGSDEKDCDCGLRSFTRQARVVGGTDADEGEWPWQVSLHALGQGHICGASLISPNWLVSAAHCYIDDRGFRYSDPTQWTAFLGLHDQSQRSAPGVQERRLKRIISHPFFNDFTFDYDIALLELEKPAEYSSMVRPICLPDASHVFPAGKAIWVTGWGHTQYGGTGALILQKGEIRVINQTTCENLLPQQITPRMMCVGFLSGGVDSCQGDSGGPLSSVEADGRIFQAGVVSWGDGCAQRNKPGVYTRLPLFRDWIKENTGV
Sequence of UniProt Q9UEE5 (whole entry, looked up): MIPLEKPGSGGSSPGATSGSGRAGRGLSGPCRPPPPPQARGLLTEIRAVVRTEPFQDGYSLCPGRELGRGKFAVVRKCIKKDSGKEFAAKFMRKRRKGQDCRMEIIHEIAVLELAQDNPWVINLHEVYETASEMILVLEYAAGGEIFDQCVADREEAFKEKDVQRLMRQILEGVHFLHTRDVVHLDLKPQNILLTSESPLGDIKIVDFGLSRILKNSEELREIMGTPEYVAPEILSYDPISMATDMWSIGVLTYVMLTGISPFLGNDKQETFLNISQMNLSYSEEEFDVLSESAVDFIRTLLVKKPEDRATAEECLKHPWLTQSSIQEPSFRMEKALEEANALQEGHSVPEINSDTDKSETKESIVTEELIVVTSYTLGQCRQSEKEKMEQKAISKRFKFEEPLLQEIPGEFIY
Sequence of UniProt P49841 (whole entry, looked up): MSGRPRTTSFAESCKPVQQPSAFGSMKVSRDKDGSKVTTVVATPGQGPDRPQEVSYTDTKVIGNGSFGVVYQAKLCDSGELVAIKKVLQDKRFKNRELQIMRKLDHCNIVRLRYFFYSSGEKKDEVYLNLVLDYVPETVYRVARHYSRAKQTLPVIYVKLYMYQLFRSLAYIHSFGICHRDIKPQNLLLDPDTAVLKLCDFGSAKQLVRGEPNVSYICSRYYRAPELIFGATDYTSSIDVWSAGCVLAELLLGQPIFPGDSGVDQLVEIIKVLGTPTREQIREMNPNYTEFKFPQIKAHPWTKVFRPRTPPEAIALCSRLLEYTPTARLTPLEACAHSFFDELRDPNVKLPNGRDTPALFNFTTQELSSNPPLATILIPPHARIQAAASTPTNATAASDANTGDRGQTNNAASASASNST
Sequence of UniProt P05164 (whole entry, looked up): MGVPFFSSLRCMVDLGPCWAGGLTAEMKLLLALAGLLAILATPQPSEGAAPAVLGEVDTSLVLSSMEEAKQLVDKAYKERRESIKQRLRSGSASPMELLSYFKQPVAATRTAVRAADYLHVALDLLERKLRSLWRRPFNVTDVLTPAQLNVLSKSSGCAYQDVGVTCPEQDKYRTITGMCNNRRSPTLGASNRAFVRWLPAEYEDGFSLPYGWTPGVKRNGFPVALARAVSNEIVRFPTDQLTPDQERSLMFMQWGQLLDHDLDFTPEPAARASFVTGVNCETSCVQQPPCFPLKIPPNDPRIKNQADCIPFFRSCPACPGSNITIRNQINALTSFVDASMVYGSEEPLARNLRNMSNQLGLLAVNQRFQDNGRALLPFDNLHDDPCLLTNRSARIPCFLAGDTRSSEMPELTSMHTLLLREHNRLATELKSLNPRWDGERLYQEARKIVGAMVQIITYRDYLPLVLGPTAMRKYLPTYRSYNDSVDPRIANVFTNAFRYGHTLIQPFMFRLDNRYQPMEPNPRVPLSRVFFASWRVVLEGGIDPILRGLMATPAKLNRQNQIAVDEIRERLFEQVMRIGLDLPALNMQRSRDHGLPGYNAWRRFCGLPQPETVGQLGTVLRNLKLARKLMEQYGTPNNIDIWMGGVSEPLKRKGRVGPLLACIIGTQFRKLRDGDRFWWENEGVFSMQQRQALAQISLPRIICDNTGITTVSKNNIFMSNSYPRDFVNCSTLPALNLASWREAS

`C=CC(=O)N1CCC(COCC(=O)N2CCN(c3nc(-c4cnc(N)nc4C(F)F)nc(N4CCOC[C@@H]4C)n3)CC2)CC1` has a remaining binding of 94% (Serine/threonine-protein kinase Chk2 (CHEK2, Homo sapiens, UniProt O96017); binding, competition with immobilised ligand; 1 µM).
With `CC[C@H](C)[C@H](NC(=O)[C@H](CCC(N)=O)NC(=O)[C@@H](NC(=O)[C@H](CCSC)NC(=O)[C@H](CCCCN)NC(=O)[C@H](CO)NC(=O)[C@@H](NC(=O)[C@H](CCSC)NC(=O)[C@H](CC(C)C)NC(=O)[C@H](CC(N)=O)NC(=O)[C@@H](NC(=O)[C@@H](NC(=O)[C@H](CO)NC(=O)[C@H](CC(C)C)NC(=O)[C@H](C)NC(=O)[C@H](CCCNC(=N)N)NC(=O)[C@H](CCC(=O)O)NC(=O)[C@H](Cc1ccc(O)cc1)NC(=O)[C@H](Cc1ccccc1)NC(=O)[C@H](C)NC(=O)[C@H](CC(N)=O)NC(=O)[C@@H](N)CCCCN)[C@@H](C)CC)[C@@H](C)CC)[C@@H](C)O)C(C)C)C(=O)N[C@@H](CC(N)=O)C(=O)N[C@H](C(=O)O)C(C)C` the remaining activity was 54% (Cyclin-dependent kinase 5, with p25 (CDK5, Homo sapiens, UniProt Q00535); enzyme activity, inhibitor, radiometric; 100 µM, 20 min).
`COc1cc(-c2cncc3c2CN(C)Cc2cc(N4CCNCC4)ccc2-3)cc(OC)c1OC` gave a remaining activity of 106% (Mitogen-activated protein kinase 12 (MAPK12, Homo sapiens, UniProt P53778); enzyme activity, inhibitor; 1 µM).
For `CNc1ncc2c(/C=C/C(=O)N3CCC(OC)CC3)nn(Cc3cccc(C(F)(F)F)c3)c2n1`, the remaining activity was 94% (Macrophage-stimulating protein receptor (MST1R, Homo sapiens, UniProt Q04912); enzyme activity, inhibitor, radiometric; 1 µM).
`Cc1nn(CC(F)(F)F)cc1Nc1nccc(NCCCNC(=O)C2CCC2)n1` gave a remaining activity of 106% (Serine/threonine-protein kinase 17A (STK17A, Homo sapiens, UniProt Q9UEE5); enzyme activity, inhibitor, radiometric; 1 µM).
`CC1=CC(=O)c2ccccc2C1=O` has a remaining activity of 16.4% (CTSL; enzyme activity, inhibitor; 100 µM).
For `CC[C@H](C)[C@H](NC(=O)[C@H](CCC(N)=O)NC(=O)[C@H](CC(C)C)NC(=O)[C@H](CCSC)NC(=O)[C@H](CCCCN)NC(=O)[C@H](CO)NC(=O)[C@H](CO)NC(=O)[C@H](CCSC)NC(=O)[C@H](CC(C)C)NC(=O)[C@H](CC(N)=O)NC(=O)[C@@H](NC(=O)[C@@H](NC(=O)[C@H](CO)NC(=O)[C@H](CC(C)C)NC(=O)[C@H](CS)NC(=O)[C@H](CCCNC(=N)N)NC(=O)[C@H](CC(=O)O)NC(=O)[C@H](Cc1c[nH]c2ccccc12)NC(=O)[C@H](Cc1ccccc1)NC(=O)[C@H](C)NC(=O)[C@H](CCC(=O)O)NC(=O)[C@@H](N)CCCCN)C(C)C)[C@@H](C)CC)C(=O)N[C@@H](CC(N)=O)C(=O)N[C@@H](C)C(=O)O`, the remaining activity was 108% (Glycogen synthase kinase-3 beta (GSK3B, Homo sapiens, UniProt P49841); enzyme activity, inhibitor, radiometric; 100 µM, 20 min).
With `CC1OC(OC2C(CO)OC(OCC3OC(OC(=O)C45CCC(C)(C)CC4C4=CCC6C7(C)CCC(OC8OCC(O)C(O)C8O)C(C)(CO)C7CCC6(C)C4(C)CC5)C(O)C(O)C3O)C(O)C2O)C(O)C(O)C1O` (centres unmarked) the remaining activity was 304% (CTSL; enzyme activity, inhibitor; 100 µM).
With `NC/C(=C\F)COc1cccc(Cn2c(=S)[nH]c(=O)c3[nH]cnc32)c1` the remaining activity was 9.08% (Myeloperoxidase (MPO, Homo sapiens, UniProt P05164); enzyme activity, inhibitor; 0.25 µM).
The remaining activity of `O=CC(O)C(O)C(OC1OC(CO)C(OC2OC(CO)C(OC3OC(CO)C(O)C(O)C3O)C(O)C2O)C(O)C1O)C(O)CO` (centres unmarked) is reported as 91.7% (CTSL; enzyme activity, inhibitor; 100 µM).
`N=C(N)NCCC[C@H](NC(=O)[C@H](Cc1ccc(I)cc1)NC(=O)[C@H](Cc1cscn1)NC(=O)CCc1ccccc1)C(=O)c1nc2ccccc2s1` has a remaining activity of 96% (Suppressor of tumorigenicity 14 protein (ST14, Homo sapiens, UniProt Q9Y5Y6); enzyme activity, inhibitor; 0.1 µM).

A few entries again:
With `CC1OC(OC2C(CO)OC(OCC3OC(OC(=O)C45CCC(C)(C)CC4C4=CCC6C7(C)CCC(OC8OCC(O)C(O)C8O)C(C)(CO)C7CCC6(C)C4(C)CC5)C(O)C(O)C3O)C(O)C2O)C(O)C(O)C1O` (centres unmarked) the remaining activity was 304% (CTSL; enzyme activity, inhibitor; 100 µM).
